Experimental data of several laboratories.
Numbered parts are unrelated; each lists some results of a single study. Substitutions count along the parent as printed.
Sequence of UniProt P06239 (whole entry, looked up): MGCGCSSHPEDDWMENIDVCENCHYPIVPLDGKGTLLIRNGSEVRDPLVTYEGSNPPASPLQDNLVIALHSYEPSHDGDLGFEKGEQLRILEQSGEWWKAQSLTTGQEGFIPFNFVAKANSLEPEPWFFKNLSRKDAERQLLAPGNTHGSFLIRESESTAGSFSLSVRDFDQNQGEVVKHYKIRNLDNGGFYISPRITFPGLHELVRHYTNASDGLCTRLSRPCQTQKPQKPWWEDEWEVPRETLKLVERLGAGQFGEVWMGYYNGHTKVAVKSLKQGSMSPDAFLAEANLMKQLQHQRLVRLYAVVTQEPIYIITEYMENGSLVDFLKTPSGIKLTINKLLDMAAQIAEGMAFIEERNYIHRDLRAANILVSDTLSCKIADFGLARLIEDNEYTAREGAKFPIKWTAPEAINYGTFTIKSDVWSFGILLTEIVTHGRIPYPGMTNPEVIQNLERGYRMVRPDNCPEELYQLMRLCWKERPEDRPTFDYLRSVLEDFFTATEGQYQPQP

Set 1
Target: PABPC1L2, full length, GST fusion (mouse, UniProt A0ABA7IW68)
Technique: RNAcompete
Form: RNA
Medium: in vitro
Tested at: 20 nM
Setting: 7-mer, probes averaged, single round
Reference: mean of 7-mers
Direction: higher = stronger binding
Residues (chain): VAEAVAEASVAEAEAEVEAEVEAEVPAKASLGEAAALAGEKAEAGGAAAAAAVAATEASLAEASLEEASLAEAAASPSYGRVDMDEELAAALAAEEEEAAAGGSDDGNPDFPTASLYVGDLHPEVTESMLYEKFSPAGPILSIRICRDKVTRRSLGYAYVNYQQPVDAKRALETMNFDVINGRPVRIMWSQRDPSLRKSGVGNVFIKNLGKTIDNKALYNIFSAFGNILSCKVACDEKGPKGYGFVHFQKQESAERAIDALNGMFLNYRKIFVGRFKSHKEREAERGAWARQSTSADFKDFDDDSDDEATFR
Strand	7-mer Z-score
GGCUACC	-0.0428
UUAAAAC	1.12
CACGUCC	-0.278
CCUUCAA	-0.162
GGAGCGU	0.00617
GGUGGCG	0.0605
CAAUUGU	-0.295
GCGUUCU	-0.293

Set 2
Target: Histone acetyltransferase KAT6A, winged helix 1, GST fusion (KAT6A, Homo sapiens, UniProt Q92794, residues 1-85)
Technique: protein binding microarray
Form: double-stranded DNA, one strand shown
Medium: in vitro
Tested at: not given
Setting: 8-mer, flanks averaged, mean of 2 arrays, mostly near background
Reference: not given
Direction: higher = stronger binding
Target sequence (chain): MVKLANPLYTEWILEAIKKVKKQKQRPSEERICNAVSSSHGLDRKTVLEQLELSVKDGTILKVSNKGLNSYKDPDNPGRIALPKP
Strand	E-score
AAAATCGT	0.0358
CCTATAGG	-0.0782
TACCACGA	-0.206
GGCATGCA	0.0266
AGTGCACG	0.189
CCCACTCC	-0.0624
CACCAAAA	-0.0214
CCTGAATA	-0.0449

Set 3
Target: CEBPA, bZIP domain (human)
Technique: DHFR protein complementation
Medium: yeast
Setting: single substitutions, most at no-binding floor
Reference: wild-type JUN-FOS pair
Direction: higher = stronger binding
Starting sequence: JUN, bZIP domain (human); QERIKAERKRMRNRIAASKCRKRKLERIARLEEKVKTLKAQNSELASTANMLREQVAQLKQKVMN; partner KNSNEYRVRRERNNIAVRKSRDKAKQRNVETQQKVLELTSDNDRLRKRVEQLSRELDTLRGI
Variant	binding fitness [natural log]
A46L	-1.45
S43T	-1.41
V35S	-1.46
E54A	-1.44
L38Y	-1.44
A49R	-1.41
E32N	-1.5
V56R	-1.52

Further values, each from its own experiment
Compound	target	test	setting	how to read	endpoint	value
O=C1Nc2ccc(Br)cc2/C1=C/c1cc2c([nH]1)CCCC2	Tyrosine-protein kinase Lck (LCK, Homo sapiens, UniProt P06239)	enzyme activity, inhibitor	0.5 µM	reference: control	remaining activity	84.5%

A few entries again (set 2):
Strand	E-score
GGCATGCA	0.0266
AGTGCACG	0.189
